Results gathered from unrelated publications.
Compare with care: the assays were run in different laboratories. ± marks the error that the study gave.

With `CSCC[C@@H]1NC(=O)[C@@H]2CSSC[C@H](NC(=O)[C@H](CO)NC(=O)[C@H](C)N)C(=O)N[C@@H](CCCNC(=N)N)C(=O)N[C@@H]([C@@H](C)O)C(=O)N3CCC[C@H]3C(=O)N[C@@H](CCCCN)C(=O)N[C@@H](CC(=O)O)C(=O)N[C@H]3CSSC[C@H](NC(=O)[C@H](CCCCN)NC(=O)[C@H](CCCNC(=N)N)NC(=O)[C@H](CC(N)=O)NC1=O)C(=O)N[C@@H](CCCCN)C(=O)N[C@H]1CSSC[C@H](NC(=O)[C@@H]4CCCN4C(=O)[C@H](CC(=O)O)NC(=O)[C@H](C)NC3=O)C(=O)N[C@@H](C)C(=O)N[C@@H](CCCCN)C(=O)N[C@@H](CCC(=O)O)C(=O)N[C@@H]([C@@H](C)O)C(=O)NCC(=O)N[C@@H](CSSC[C@@H](C(N)=O)NC(=O)[C@H](CCCNC(=N)N)NC(=O)[C@H](CC(N)=O)NC1=O)C(=O)N1CCC[C@H]1C(=O)N[C@@H](Cc1ccc(O)cc1)C(=O)NCC(=O)N[C@@H](CCCCN)C(=O)N2` the LDH was 582 U/L (DA rat, pristane-induced arthritis, serum; subcutaneous, single 0.1 mg/kg at onset, end of 21-day trial).
`COc1cc(-c2cncc(-c3ccc(N4CCNCC4)cc3)c2C)cc(O[11CH3])c1F` has a peak SUV of 1.1 (dynamic PET; Sprague-Dawley rats male, whole brain; intravenous, 16 to 23 MBq).
For `COc1ccc(C)cc1NC(=O)OC1CC2CCCC(C1)N2Cc1ccc(CC[18F])cc1` (stereo not shown), “tumour to tissue ratio” read 0.45 (BALB/c mice, EMT6 tumour; 30 min; relative to: tumour over fat).
`CC[C@@H](C)[C@H](NC(=O)[C@H](C)NC(=O)[C@H](CCCCN)NC(=O)[C@H](CC(C)C)NC(=O)[C@H](C)NC(=O)[C@@H](NC(=O)[C@H](Cc1c[nH]cn1)NC(=O)[C@H](CC(C)C)NC(=O)[C@@H](NC(=O)[C@@H](NC(=O)[C@H](CCCCN)NC(=O)[C@H](CCCCN)NC(=O)[C@H](C)NC(=O)[C@H](CO)NC(=O)[C@H](CCCCN)NC(=O)[C@H](Cc1ccccc1)NC(=O)[C@@H](NC(=O)[C@H](CCCCN)NC(=O)[C@H](CC(C)C)NC(=O)[C@H](Cc1ccccc1)NC(=O)[C@H](CO)NC(=O)[C@H](CCCCN)NC(=O)[C@H](Cc1c[nH]c2ccccc12)NC(=O)[C@H](CCCCN)NC(C)=O)[C@@H](C)O)[C@@H](C)O)C(C)C)[C@@H](C)O)C(=O)N[C@@H](CO)C(=O)N[C@@H](CO)C(N)=O` — result for “mean residue ellipticity”: -24600 deg cm² dmol⁻¹ (circular dichroism at 222 nm; buffer with 50% TFE; 75 µM, 30 °C).
The measured concentration of `C[C@@H]1CC[C@H]2[C@@H](C)CO[C@@H]3O[C@@]4(C)CC[C@@H]1[C@]32OO4` is reported as 816 ± 43.2 ng/mL (refers to: compound; rat, plasma; 800 ng/mL spiked, 24 h, autosampler at 4 °C).
For `CC(C)[C@H](NC(=O)CNC(=O)[C@H](CCC(N)=O)NC(=O)[C@H](C)N)C(=O)O`, “probably related adverse events” read 0% (human; single dose, 3 mg/kg).
Under “volume of distribution at steady state”, `CC(C)C[C@H](NC(=O)[C@H](CCCCN)NC(=O)[C@H](CCC(=O)O)NC(=O)[C@H](C)NC(=O)[C@@H](NC(=O)[C@H](CCCCN)NC(=O)[C@H](CC(=O)O)NC(=O)[C@H](Cc1ccc(O)cc1)NC(=O)[C@H](Cc1ccccc1)NC(=O)[C@H](C)NC(=O)[C@H](CCCCN)NC(=O)[C@H](CC(C)C)NC(=O)[C@H](Cc1c[nH]c2ccccc12)NC(=O)[C@@H](N)CC(=O)O)C(C)C)C(=O)N[C@@H](CCCCN)C(=O)N[C@@H](CCC(=O)O)C(=O)N[C@@H](C)C(=O)N[C@@H](Cc1ccccc1)C(=O)N1CCC[C@H]1C(=O)N[C@@H](CC(=O)O)C(=O)N[C@@H](Cc1c[nH]c2ccccc12)C(=O)N[C@@H](C)C(=O)N[C@@H](CCCCN)C(=O)N[C@@H](C)C(=O)N[C@@H](C)C(=O)N[C@@H](Cc1ccc(O)cc1)C(=O)N[C@@H](CC(=O)O)C(=O)N[C@@H](CCCCN)C(=O)N[C@@H](C)C(=O)N[C@@H](C)C(=O)N[C@@H](CCC(=O)O)C(=O)N[C@@H](CCCCN)C(=O)N[C@@H](C)C(=O)N[C@@H](CCCCN)C(=O)N[C@@H](CCC(=O)O)C(=O)N[C@@H](C)C(=O)N[C@@H](C)C(=O)O` is recorded as 0.053 L/kg (cynomolgus monkey female, plasma; intravenous infusion, 8 mg/kg, day 1, 30 min infusion).
For `COC(=O)C[C@](O)(CCCC(C)(C)OC(C)=O)C(=O)O[C@@H]1C(OC)=C[C@]23CCCN2CCc2cc4c(cc2[C@H]13)OCO4`, the tissue concentration was 879 ng/mL (CD1 mouse, stomach; oral, 1 mg/kg, 0.5 h).
`CC(C)C[C@@H](N)C(=O)NCC(=O)N[C@H](C)C(=O)N[C@H](CO)C(=O)N[C@H](Cc1c[nH]c2ccccc12)C(=O)N[C@H](Cc1c[nH]cn1)C(=O)N[C@H](CCCNC(=N)N)C(=O)N1CCC[C@@H]1C(=O)N[C@H](CC(=O)O)C(=O)N[C@H](CCCCN)C(=O)N[C@H](CS)C(=O)N[C@H](CS)C(=O)N[C@H](CC(C)C)C(=O)NCC(=O)N[C@H](Cc1ccc(O)cc1)C(=O)N[C@H](CCC(N)=O)C(=O)N[C@H](CCCCN)C(=O)N[C@H](CCCNC(=N)N)C(=O)N1CCC[C@@H]1C(=O)N[C@H](CC(C)C)C(=O)N1CCC[C@@H]1C(N)=O` has an accuracy of 91.5% (LC-MS/MS; rat plasma; 25 ng/mL, -80 to 25 °C, 3 freeze-thaw cycles; relative to: nominal).
Under “fold increase in AUC(0-inf)”, `CC[C@@H]1C[C@]1(NC(=O)[C@@H]1C[C@@]2(CN1C(=O)[C@@H](NC(=O)[C@@H](NC(=O)[C@@H]1CCCCN1C(C)C)C1CCCCC1)C(C)(C)C)C(C)(C)C21CCC1)C(=O)NS(=O)(=O)N1CCCC1` is recorded as ~43 fold (human; oral, 50 mg, with: ritonavir; relative to: without ritonavir).

Excerpt of the above:
`CC(C)C[C@@H](N)C(=O)NCC(=O)N[C@H](C)C(=O)N[C@H](CO)C(=O)N[C@H](Cc1c[nH]c2ccccc12)C(=O)N[C@H](Cc1c[nH]cn1)C(=O)N[C@H](CCCNC(=N)N)C(=O)N1CCC[C@@H]1C(=O)N[C@H](CC(=O)O)C(=O)N[C@H](CCCCN)C(=O)N[C@H](CS)C(=O)N[C@H](CS)C(=O)N[C@H](CC(C)C)C(=O)NCC(=O)N[C@H](Cc1ccc(O)cc1)C(=O)N[C@H](CCC(N)=O)C(=O)N[C@H](CCCCN)C(=O)N[C@H](CCCNC(=N)N)C(=O)N1CCC[C@@H]1C(=O)N[C@H](CC(C)C)C(=O)N1CCC[C@@H]1C(N)=O` has an accuracy of 91.5% (LC-MS/MS; rat plasma; 25 ng/mL, -80 to 25 °C, 3 freeze-thaw cycles; relative to: nominal).
